Measured values of several laboratories.
Each numbered part is a random draw from the data of one study; scales do not carry over between parts. Values joined by “and” are separate records of one study, mostly repeats; a detail may differ.

Block 1
Target: Histone acetyltransferase KAT6A, winged helix 1, GST fusion (KAT6A, Homo sapiens, UniProt Q92794, residues 1-85)
Technique: protein binding microarray
Form: double-stranded DNA, one strand shown
Matrix: in vitro
Concentration: not given
Setting: 8-mer, flanks averaged, mean of 2 arrays, mostly near background
Baseline: not given
Direction: higher = stronger binding
Target sequence (chain): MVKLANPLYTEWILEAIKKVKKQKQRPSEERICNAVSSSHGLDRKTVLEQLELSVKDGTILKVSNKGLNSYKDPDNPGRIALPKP
Strand | E-score
AGGGGTAG | -0.239
ATGTTATG | -0.143
CACATGGC | 0.0969
CTCTGAGA | -0.118
GAGGGCAA | -0.117

Block 2
Target: RNA binding protein fox-1 homolog 2, RRM domain, GST-SBP tag (RBFOX2, Homo sapiens, UniProt O43251-10, residues 100-194)
Technique: RNA Bind-n-Seq
Form: RNA
Matrix: in vitro
Concentration: 365 nM
Setting: natural RNA segment, single round, ends assumed
Baseline: no-protein control
Direction: higher = stronger binding
Strand | RBNS enrichment (R)
GGGAGUUCUACAGUCCGACGAUCCUUUCCAUCUCCAGGAGACUUUCAUGCAGCCUAAAGUACAGCCUGGACCACCCCUGGUGUGUAGCUAGUAAGAUUACCCUGAGCUGCAGCUGAGCCUGAGCCAAUGGGACUGGAAUUCUCGGGUGCCAA | 0.408
GGGAGUUCUACAGUCCGACGAUCGAUUCACUGUGCUUUCCUUUCAAAUCCAGUUCUUCCACAGCAACUAGCCCAUAGUCAGUCUGUGUUCUUCCACAGUUGUUUACGGUAGCCUUUUCCUAUCCACUUCCCUUUGGAAUUCUCGGGUGCCAA | 0.545
GGGAGUUCUACAGUCCGACGAUCUUGAACCGAAGAAUUAUGUCUGCCCUACAAAUUGAUUUGUGUAAAAUAAAGUAUAACUAAAUCUCCUAUCAGAUGUCUAAUUUUUACAUGCGAAUGAUUUUCUCCAAGAAUGGAAUUCUCGGGUGCCAA | 0.783

Block 3
Target: Sal-like protein 4, full length isoform A (SALL4, Homo sapiens, UniProt Q9UJQ4, residues 1-1053)
Chain of UniProt Q9UJQ4 (whole entry, looked up): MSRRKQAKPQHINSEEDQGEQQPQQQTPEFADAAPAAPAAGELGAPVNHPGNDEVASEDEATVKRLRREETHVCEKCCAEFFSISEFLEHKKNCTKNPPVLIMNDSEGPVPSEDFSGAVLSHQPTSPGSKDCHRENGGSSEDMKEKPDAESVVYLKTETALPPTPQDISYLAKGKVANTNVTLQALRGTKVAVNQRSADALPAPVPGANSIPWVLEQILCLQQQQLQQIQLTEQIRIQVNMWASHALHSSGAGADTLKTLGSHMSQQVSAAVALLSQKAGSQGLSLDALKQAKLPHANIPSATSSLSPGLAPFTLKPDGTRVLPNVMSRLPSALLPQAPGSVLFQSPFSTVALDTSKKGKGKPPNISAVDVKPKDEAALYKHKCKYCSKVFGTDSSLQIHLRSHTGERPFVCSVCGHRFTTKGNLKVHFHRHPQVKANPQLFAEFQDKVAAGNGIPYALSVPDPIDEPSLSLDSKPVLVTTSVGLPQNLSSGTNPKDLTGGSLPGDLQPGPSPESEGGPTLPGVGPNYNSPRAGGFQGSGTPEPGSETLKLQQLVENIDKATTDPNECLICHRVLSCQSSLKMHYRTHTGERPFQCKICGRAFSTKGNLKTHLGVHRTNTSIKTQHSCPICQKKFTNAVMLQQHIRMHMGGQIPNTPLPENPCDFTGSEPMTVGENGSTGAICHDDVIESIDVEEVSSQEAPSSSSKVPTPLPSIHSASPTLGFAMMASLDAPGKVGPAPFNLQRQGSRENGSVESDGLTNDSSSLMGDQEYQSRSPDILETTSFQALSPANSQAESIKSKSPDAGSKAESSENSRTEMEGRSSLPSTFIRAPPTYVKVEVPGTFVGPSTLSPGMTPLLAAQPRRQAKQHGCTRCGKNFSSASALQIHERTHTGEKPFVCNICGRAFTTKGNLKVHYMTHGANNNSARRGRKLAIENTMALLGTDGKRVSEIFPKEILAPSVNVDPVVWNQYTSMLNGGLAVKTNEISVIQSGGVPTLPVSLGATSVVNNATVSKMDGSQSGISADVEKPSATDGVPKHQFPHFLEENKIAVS
Technique: universal PBM
Form: double-stranded DNA, one strand shown
Matrix: in vitro
Concentration: 600 nM
Setting: 8-mer, flanks averaged, mean of replicates
Direction: higher = stronger binding
Strand | E-score
CTACTCCC | -0.011
GGATGTCA | 0.00805
AATCTCAT | 0.251
AACGTGTA | 0.148

Other studies, line by line
Substance | target | assay | test system | setting | scale | measurement | result
PhoQ, residues 284 288 289 292 302 303 NLCILV | PhoP, residues 12 14 15 18 19 LWHCS (Escherichia coli, UniProt P23836) | Sort-seq, item: YFP reporter | E. coli | PhoQ-PhoP variant library, added: 10 µM Mg2+ | baseline: high Mg2+ state, higher = stronger signaling | fold induction | 10.3 and 13
